Measured values collected from several papers.
Every numbered part comes from another study and shows a few of its results, in no order. Substitutions count along the parent as printed.

Study 1 — technique: universal PBM; molecule type: double-stranded DNA, one strand shown; medium: in vitro; tested at: 600 nM; reading: higher = stronger binding
Target: Sal-like protein 4, full length isoform A (SALL4, Homo sapiens, UniProt Q9UJQ4, residues 1-1053)
Chain of UniProt Q9UJQ4 (whole entry, looked up): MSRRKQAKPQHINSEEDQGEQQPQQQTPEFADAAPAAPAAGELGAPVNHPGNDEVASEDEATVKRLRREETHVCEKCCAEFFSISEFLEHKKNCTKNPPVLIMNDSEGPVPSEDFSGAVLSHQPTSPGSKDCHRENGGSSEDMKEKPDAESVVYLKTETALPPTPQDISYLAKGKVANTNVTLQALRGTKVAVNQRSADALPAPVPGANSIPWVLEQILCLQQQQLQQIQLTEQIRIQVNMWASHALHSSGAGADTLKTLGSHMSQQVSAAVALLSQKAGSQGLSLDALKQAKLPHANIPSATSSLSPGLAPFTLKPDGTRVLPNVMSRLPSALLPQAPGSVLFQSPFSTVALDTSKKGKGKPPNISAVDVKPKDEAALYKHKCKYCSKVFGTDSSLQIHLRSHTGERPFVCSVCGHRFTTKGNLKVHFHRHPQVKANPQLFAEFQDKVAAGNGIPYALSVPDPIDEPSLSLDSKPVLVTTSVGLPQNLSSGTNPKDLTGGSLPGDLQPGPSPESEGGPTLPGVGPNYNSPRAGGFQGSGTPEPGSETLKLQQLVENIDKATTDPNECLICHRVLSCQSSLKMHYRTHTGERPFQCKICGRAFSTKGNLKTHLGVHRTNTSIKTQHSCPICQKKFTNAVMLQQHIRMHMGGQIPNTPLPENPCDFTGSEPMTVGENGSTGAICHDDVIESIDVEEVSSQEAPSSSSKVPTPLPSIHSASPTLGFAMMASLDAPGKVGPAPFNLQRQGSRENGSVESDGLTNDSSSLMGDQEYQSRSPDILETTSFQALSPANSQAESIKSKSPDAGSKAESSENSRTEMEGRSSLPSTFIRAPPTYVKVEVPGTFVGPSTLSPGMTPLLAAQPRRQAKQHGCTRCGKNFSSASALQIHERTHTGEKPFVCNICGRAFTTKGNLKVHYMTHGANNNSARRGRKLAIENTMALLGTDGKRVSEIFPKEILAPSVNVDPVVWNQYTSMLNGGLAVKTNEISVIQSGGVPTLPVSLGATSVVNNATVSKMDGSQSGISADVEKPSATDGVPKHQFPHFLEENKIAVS
Notes: 8-mer, flanks averaged, mean of replicates
With `GCCCGGTA` the E-score was -0.315.
The E-score of `GTTCAGTA` is reported as 0.126.
For `GTGTTAGA`, the E-score was 0.117.
`ACAGCGGC` gave an E-score of -0.137.
For `CCCCCAGC`, the E-score was -0.35.
The E-score of `AGCCCAAT` is reported as -0.0472.
The E-score of `ATGTACGG` is reported as 0.0481.
With `ACATAGCC` the E-score was -0.0832.
The E-score of `CTAACGAG` is reported as 0.0734.
`CTCGCCTC` gave an E-score of -0.32.
`AAAAAAAT` has an E-score of 0.377.
With `ACGACTAA` the E-score was -0.0381.
For `CCAATCCA`, the E-score was -0.256.
With `TGAAAGCA` the E-score was 0.216.
`CGCTGGAC` has an E-score of -0.3.
For `AGGCCTGA`, the E-score was -0.152.
`CGGTTGGC` gave an E-score of -0.281.
With `GTATGTTA` the E-score was 0.257.
The E-score of `CGTAGTGC` is reported as -0.187.
The E-score of `GGTTCAAC` is reported as -0.257.
`AATATGTC` gave an E-score of 0.303.

Study 2 — technique: aptamer microarray, sandwich; molecule type: DNA with 2'F-ANA; medium: in vitro; tested at: 200 nM; added: Cy3 exosite-II aptamer, 400 nM; reading: higher = stronger binding; oligonucleotide: GGTTGGTGTGGTTGG
Target: Prothrombin, mature alpha-thrombin (F2, Homo sapiens, UniProt P00734)
Notes: whole 15-mer aptamer, many near background
`2'F-ANA at 1 2 4 5 7 8 10 11 15` — result for “mean fluorescence intensity”: 45.5 a.u.
`2'F-ANA at 1 2 3 7 9 10` — result for “mean fluorescence intensity”: 65.8 a.u.
`2'F-ANA at 2 5 6 7 8 9 13 15` — result for “mean fluorescence intensity”: 56.6 a.u.
Under “mean fluorescence intensity”, `2'F-ANA at 3 5 7 8 10 12 14` is recorded as 53.3 a.u.
`2'F-ANA at 2 5 6 7 8 10 12 14 15`: “mean fluorescence intensity” 50.5 a.u.
For `2'F-ANA at 1 3 4 5 6 8 10 12 13 14`, “mean fluorescence intensity” read 46.6 a.u.
`2'F-ANA at 1 4`: “mean fluorescence intensity” 137 a.u.
`2'F-ANA at 6 9 10 11 13 14 15` — result for “mean fluorescence intensity”: 92.5 a.u.
For `2'F-ANA at 2 3 5 6 13 14`, “mean fluorescence intensity” read 53.9 a.u.
`2'F-ANA at 2 3 4 6 7 8 11 12 13 15`: “mean fluorescence intensity” 615 a.u.
Under “mean fluorescence intensity”, `2'F-ANA at 3 6 8 9 11 12 14` is recorded as 546 a.u.
`2'F-ANA at 2 4 7 10 11 14 15`: “mean fluorescence intensity” 62.7 a.u.
`2'F-ANA at 1 3 12 13`: “mean fluorescence intensity” 490 a.u.
`2'F-ANA at 5 8 9 12 13 15` — result for “mean fluorescence intensity”: 102 a.u.
Under “mean fluorescence intensity”, `2'F-ANA at 2 4 6 7 8 9 10 11 12 15` is recorded as 97 a.u.
Under “mean fluorescence intensity”, `2'F-ANA at 1 2 3 4 6 7 10 13 15` is recorded as 95.7 a.u.
For `2'F-ANA at 1 3 5 7 8 9 15`, “mean fluorescence intensity” read 73.3 a.u.
`2'F-ANA at 4 7 8 9 11 14 15` — result for “mean fluorescence intensity”: 93.5 a.u.
Under “mean fluorescence intensity”, `2'F-ANA at 1 2 3 10 13 14 15` is recorded as 49.3 a.u.
Under “mean fluorescence intensity”, `2'F-ANA at 1 2 5 7 8 9 10 11` is recorded as 51.1 a.u.

Study 3 — technique: RNA Bind-n-Seq; molecule type: RNA; medium: in vitro; tested at: 365 nM; reference: no-protein control; reading: higher = stronger binding
Target: RNA binding protein fox-1 homolog 2, RRM domain, GST-SBP tag (RBFOX2, Homo sapiens, UniProt O43251-10, residues 100-194)
Notes: natural RNA segment, single round, ends assumed
All sequences stand within: GGGAGUUCUACAGUCCGACGAUC … UGGAAUUCUCGGGUGCCAA
Residues (chain): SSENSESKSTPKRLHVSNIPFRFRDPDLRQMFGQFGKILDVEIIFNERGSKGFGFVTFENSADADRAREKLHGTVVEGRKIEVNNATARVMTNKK
Under “RBNS enrichment (R)”, `UUGCAUAGAGAGAAAUGAUUGACAGUAAGUUUAUUGUUAAUGGUUCUUACAGAGUAUCUUUAAAAGUGCCUUAGGGGAACCCUGUCCCUCCUAACAAGUGUAUCUCGAUU` is recorded as 0.253.
`AUACAAGCCAAAGUGGCAUGUUUUGUGCAUUUGUAAAUGCUGUGUUGGGUAGAAUAGGUUUUCCCCUCUUUUGUUAAAUAAUAUGGCUAUGCUUAAAAGGUUGCAUACUG`: “RBNS enrichment (R)” 1.02.
`UGUAAAUGCAUGAGUUUGGAAACCACCCAUCAAAUAUGAAAGGCUGAUGAGACUGUUAGGAUUGAUAAACAUUUGUUGUUUGAACCCAGCUAUCCAAACUGGGGAAGAAG` — result for “RBNS enrichment (R)”: 8.46.
`AGGUCAUGUUCUAAAAUUAAGGCUGAGAAAGGUGUGAGGUCGAAGAUCUCAGGCAGCGCUGUUUCCUGUGAAGAAAAAAAAAGUGUAUAUAUCCAUAGAUAUAGUACUUU`: “RBNS enrichment (R)” 0.447.
`GUGCCACUGGCCUGACCCUCGAGACAGCUCAAGGAUCCGUGGUGUGGCCACCUGCCAGACCCCCAAGGAGAGAGGCCAAGAGUGGCCCUGGCACAGUGUGUCUGCUAGCU`: “RBNS enrichment (R)” 0.356.
Under “RBNS enrichment (R)”, `ACCCAUACCCUGUGUGAGGGCACAACCAGGCCACGGGACCUUCUAUCCUCUGUAUUUGUCAUUCCUCUCCUAGCCCUCCUGAGGGGUAUCCUCCUAAAGACCUCCAAAGU` is recorded as 0.434.
`GGCGGAAGUAAAGGCUCAGGAGACAGCCACCACAGAGGCAGAUGCCAAACCAAAGACAGAUUUGCUUAACCAACAGACGGGUGCUGACCCAUCCAGAACCACGUGCACGA`: “RBNS enrichment (R)” 2.43.
For `AUUAGUUGAGAAAGCUCUGUUUCAUUUAGAGUUUUAAAGGAAUAUUCUCUCUUCAAUUAAGGAAUUUUCAUAAUGGAAUGGUUUAAAUUGAAGUGAUAAAGAAUAUUAUU`, “RBNS enrichment (R)” read 0.573.
Under “RBNS enrichment (R)”, `GUUGUCACAGUUAGUCCGGAAAUGACUGAAACCAGGCAUUCUCCCGGACCUCAGCGUGGGGGAGCCUCCAGGCAGACGCUGGGUAUGGAGCUGUGGUGUGGUCUGUCCUG` is recorded as 0.338.
`UCUCCAGAAUAAACGUCCCAGCGUUGCCCUGACCUGGCUGGAGGGCGCAUUGCUGUCUGUGCCUGUGUUGUGCACAGCCACAGUUAGUAACUGGGGAAGCUUCUGUACUA` — result for “RBNS enrichment (R)”: 0.458.
For `GAGCCUUAGGAUGCAGCAUGCCUUCAGGAGACACUGCUGGACCUCAGCAUUCCCUUGAUAUCAGUCCCCUUCACUGCAGAGCCUUGCCUUUCCCCUCUGCCUGUUUCCUU`, “RBNS enrichment (R)” read 8.6.
Under “RBNS enrichment (R)”, `AUAUACUGAUCCUAAAACCAAGGGAAUUAACAUUCCUAAUCCUGCACUAUGAACAGAACCCUGCCCAUGAGAGGCACUUGUAGGUGAAACUCUCUUUUCUUGUUCUUUUU` is recorded as 0.552.

Study 4 — technique: protein-binding microarray; molecule type: double-stranded DNA, one strand shown; medium: in vitro; tested at: 940 nM top; notes: 60-bp whole probe; added: salmon DNA 0.4 mg/ml; reference: random background probes; reading: higher = stronger binding; all sequences stand within: GCCTAGCAC … GTCTTGATTCGCTTGACGCTGCTG
Target: Interferon regulatory factor 5, full length, phosphomimetic (IRF5, Homo sapiens, UniProt Q13568-2, residues 1-514, S451D/S453D/S456D/S462D)
`TTAAGTATCCTTTTCCTTTAGTGCTAG` — result for “fitted relative affinity”: 1.29 z-score.
`GAGGATTCCAGTTTCGAGACGTGCTAG` — result for “fitted relative affinity”: 3.46 z-score.
Under “fitted relative affinity”, `GACGGACTGGACTTTCGGGCCGTGCTA` is recorded as -0.0695 z-score.
Under “fitted relative affinity”, `TCATTTCTAAATTCCCTACTGTGCTAG` is recorded as 1.4 z-score.
Under “fitted relative affinity”, `TGAAGTTTTAATAACACAGAGTGCTAG` is recorded as -0.514 z-score.
`TACGGTTCCCTTTTCCTGACGTGCTAG` — result for “fitted relative affinity”: 0.812 z-score.
`GACGGTATCTTACTGCTGACGTGCTAG` — result for “fitted relative affinity”: 0.0463 z-score.
`GACGTACTGGGTCTCGGGACGTGCTAG` — result for “fitted relative affinity”: -0.286 z-score.
`TTAGATATGAGACTGGATTAGTGCTAG`: “fitted relative affinity” -0.0396 z-score.
`GACAATCTCAGTCTCGAGACGTGCTAG`: “fitted relative affinity” 1.53 z-score.
`TCAAAGATTGCCGTTTCCACTGTGCTA`: “fitted relative affinity” 0.102 z-score.
`AAATCATTTTCTCTGTTCTAGTGCTAG`: “fitted relative affinity” 1.45 z-score.
`TGCTTTCTCCCAAGTCTTGTTGTGCTA`: “fitted relative affinity” 1.77 z-score.
`TCAAGTCTGGGCTACAACTTGGTGCTA` — result for “fitted relative affinity”: -0.621 z-score.
`GACGGTCTCCTTATCCAGACGTGCTAG`: “fitted relative affinity” 0.513 z-score.
Under “fitted relative affinity”, `TTAGATCTGAGTTTCGATTAGTGCTAG` is recorded as 7.44 z-score.

Study 5 — technique: DHFR PCA, deep sequencing; medium: yeast; added: (+)-ABA 200 µM; reference: wild-type fitted maximum; reading: higher = stronger binding
Target: ABI1, truncated, D143A, DHFR fusion (Arabidopsis thaliana)
Notes: methotrexate growth selection, single substitutions
Starting sequence: PYL1, truncated, DHFR fusion (Arabidopsis thaliana); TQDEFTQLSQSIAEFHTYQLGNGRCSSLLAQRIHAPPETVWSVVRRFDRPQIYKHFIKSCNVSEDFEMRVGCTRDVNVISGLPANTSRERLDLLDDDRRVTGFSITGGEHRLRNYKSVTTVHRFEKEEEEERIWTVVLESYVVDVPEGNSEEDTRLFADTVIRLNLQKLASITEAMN
For `S59Y`, “relative binding score” read 84.1%.
Under “relative binding score”, `S87Q` is recorded as 4.33%.
For `S140C`, “relative binding score” read -0.719%.
For `T101N`, “relative binding score” read 39.4%.
For `H122N`, “relative binding score” read 68.4%.
`R111E` — result for “relative binding score”: 34.7%.
Under “relative binding score”, `S80L` is recorded as 15.4%.
`G21P`: “relative binding score” 96.5%.
`K116A`: “relative binding score” 100%.
For `T106Y`, “relative binding score” read 105%.
Under “relative binding score”, `W134C` is recorded as 106%.
`H110M` — result for “relative binding score”: 27.2%.
`G71Q` — result for “relative binding score”: 45.2%.
`N61C` — result for “relative binding score”: 99.6%.
Under “relative binding score”, `S63I` is recorded as 95.6%.
For `V40L`, “relative binding score” read 2.76%.
For `N149G`, “relative binding score” read 61.6%.
`R45Q` — result for “relative binding score”: 32%.
Under “relative binding score”, `S80R` is recorded as 49.1%.
`G102M`: “relative binding score” 74.7%.
For `E127M`, “relative binding score” read 104%.
`K54L`: “relative binding score” -6.9%.
Under “relative binding score”, `R123W` is recorded as 81.3%.
For `V78W`, “relative binding score” read 39.5%.
`Q31L` — result for “relative binding score”: 49.4%.

Excerpt of the above (study 5):
For `S140C`, “relative binding score” read -0.719%.
For `T101N`, “relative binding score” read 39.4%.
For `H122N`, “relative binding score” read 68.4%.
`R111E` — result for “relative binding score”: 34.7%.
Under “relative binding score”, `S80L` is recorded as 15.4%.
`G21P`: “relative binding score” 96.5%.
`K116A`: “relative binding score” 100%.
For `T106Y`, “relative binding score” read 105%.
Under “relative binding score”, `W134C` is recorded as 106%.
`H110M` — result for “relative binding score”: 27.2%.
`G71Q` — result for “relative binding score”: 45.2%.
`N61C` — result for “relative binding score”: 99.6%.
Under “relative binding score”, `S63I` is recorded as 95.6%.
For `V40L`, “relative binding score” read 2.76%.
For `N149G`, “relative binding score” read 61.6%.
